Measurements from different studies.
Numbered parts are unrelated; each lists some results of a single study.

Set 1
Target: Histone acetyltransferase KAT6A, winged helix 1, GST fusion (KAT6A, Homo sapiens, UniProt Q92794, residues 1-85)
Technique: protein binding microarray
Molecule type: double-stranded DNA, one strand shown
Medium: in vitro
Tested at: not given
Notes: 8-mer, flanks averaged, mean of 2 arrays, mostly near background
Reference: not given
Direction: higher = stronger binding
Target sequence (chain): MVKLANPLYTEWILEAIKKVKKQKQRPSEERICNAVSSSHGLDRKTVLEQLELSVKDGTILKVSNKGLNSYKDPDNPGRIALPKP
Sequence	E-score
GCTTACAA	-0.0542
CTTATTTA	-0.115
GCATGACC	-0.0504
CGCACTGA	0.154
ATTCTTGA	-0.235
ACGTGGTG	-0.0574
AGAACGCG	0.332

Set 2
Target: Sal-like protein 4, full length isoform B (SALL4, Homo sapiens, UniProt Q9UJQ4-2, residues 1-616)
Technique: universal PBM
Molecule type: double-stranded DNA, one strand shown
Medium: in vitro
Tested at: not given
Notes: 8-mer, flanks averaged, mean of replicates
Direction: higher = stronger binding
Target sequence (chain): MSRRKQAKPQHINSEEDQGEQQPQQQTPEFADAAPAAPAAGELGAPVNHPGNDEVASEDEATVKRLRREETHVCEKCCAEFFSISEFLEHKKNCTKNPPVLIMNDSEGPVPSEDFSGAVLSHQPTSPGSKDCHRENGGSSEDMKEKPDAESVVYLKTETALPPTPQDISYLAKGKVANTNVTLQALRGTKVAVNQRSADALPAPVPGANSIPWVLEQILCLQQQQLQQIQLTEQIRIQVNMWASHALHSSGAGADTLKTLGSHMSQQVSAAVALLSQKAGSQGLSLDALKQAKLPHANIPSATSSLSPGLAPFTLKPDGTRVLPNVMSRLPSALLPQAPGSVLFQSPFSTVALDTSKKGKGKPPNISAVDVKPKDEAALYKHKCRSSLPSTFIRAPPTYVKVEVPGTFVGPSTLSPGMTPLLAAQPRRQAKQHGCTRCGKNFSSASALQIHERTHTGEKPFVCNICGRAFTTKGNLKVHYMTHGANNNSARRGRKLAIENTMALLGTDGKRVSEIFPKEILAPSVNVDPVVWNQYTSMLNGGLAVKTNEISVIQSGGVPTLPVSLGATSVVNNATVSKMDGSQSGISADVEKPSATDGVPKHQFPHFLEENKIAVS
Sequence	E-score
AAGTAGGC	-0.107
ATGAACGA	0.18
AATCCTGG	-0.15
TAGCTCAA	-0.00859
CAGTTCAG	-0.143
GATACTAC	0.117

Set 3
Target: RNA binding protein fox-1 homolog 2, RRM domain, GST-SBP tag (RBFOX2, Homo sapiens, UniProt O43251-10, residues 100-194)
Technique: RNA Bind-n-Seq
Molecule type: RNA
Medium: in vitro
Tested at: 365 nM
Notes: natural RNA segment, single round, ends assumed
Reference: no-protein control
Direction: higher = stronger binding
All sequences stand within: GGGAGUUCUACAGUCCGACGAUC … UGGAAUUCUCGGGUGCCAA
Residues (chain): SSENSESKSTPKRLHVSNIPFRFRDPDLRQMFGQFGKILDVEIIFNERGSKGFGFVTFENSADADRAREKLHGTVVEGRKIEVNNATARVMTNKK
Sequence	RBNS enrichment (R)
CAGCACACACACUACCUGCAAUGGCCUGCCCAUUCCCUUCAGCUAUUUGUCCUUUUCUUACUGGCAGGUAGUUGCUCACAUAUUCAUCUCUUGCCAAAUAAGGGCCUGCU	0.822
UGCAGUCAGAGCUGACUUGUAAACUAUUCUUGUAAUAGCUCAUUAUUUUGAAAGAUUUAUAUAUGAUGAAUUCUGGAUAUAUGACCAAUAAAACUGAUGAAGCAAAACCU	0.359
GUACUAGUCUGUGUGGGACUGUACACACUUUAUUUACUUCGUUUUGGUUAAGUUGGCUUCUGUUUCUAGUUGAGGAGUUUCCUAAAAGUUCAUAACAGUGCCAUUGUCUU	0.878
UUGGGUGUCCUCAACAGUGAAUUCACUGUCUGCGUGCAGUUAUUACAUGCAUUUGUGCAUUUCUACUACAAUGGCAUCUUUAUGUCUCUGUAACAUUGGCCUUUUCAUGG	0.363
GGCAAAUGUCUGGAUGUCGCAUUUCCUCACCCCCCACCUCAUGAAUCCUACUUCUCCCCAACAUAGAAGUAGACAUUUCUCAUCCCAUUCUUUGUAAAUGUCCACACCCU	0.94
CGAAGUUAGAUUUGAACAUAGAUAAGAUAGGUUAUUCCAGUUGAGAAUAUUGUUCGAAGAAUGUCUGUGAAUGCAGACAUGGGUCCUGCUUAGUGCCAUAGGUAGACUGA	0.305

Further values, each from its own experiment
Molecule	target	assay	system	setting	how to read	measurement	value
PhoQ, residues 284 288 289 292 302 303 SMMNNA	PhoP, residues 12 14 15 18 19 NQAHL (Escherichia coli, UniProt P23836)	Sort-seq, measured: YFP reporter	E. coli	PhoQ-PhoP variant library, together with: 10 µM Mg2+	reference: high Mg2+ state, higher = stronger signaling	fold induction	1.16

A few entries again (set 3):
Sequence	RBNS enrichment (R)
UGCAGUCAGAGCUGACUUGUAAACUAUUCUUGUAAUAGCUCAUUAUUUUGAAAGAUUUAUAUAUGAUGAAUUCUGGAUAUAUGACCAAUAAAACUGAUGAAGCAAAACCU	0.359
GUACUAGUCUGUGUGGGACUGUACACACUUUAUUUACUUCGUUUUGGUUAAGUUGGCUUCUGUUUCUAGUUGAGGAGUUUCCUAAAAGUUCAUAACAGUGCCAUUGUCUU	0.878
UUGGGUGUCCUCAACAGUGAAUUCACUGUCUGCGUGCAGUUAUUACAUGCAUUUGUGCAUUUCUACUACAAUGGCAUCUUUAUGUCUCUGUAACAUUGGCCUUUUCAUGG	0.363
